Experimental data collected from several papers.
Every numbered part comes from another study and shows a few of its results, in no order.
UniProt Q96BR1, sequence (whole entry, looked up): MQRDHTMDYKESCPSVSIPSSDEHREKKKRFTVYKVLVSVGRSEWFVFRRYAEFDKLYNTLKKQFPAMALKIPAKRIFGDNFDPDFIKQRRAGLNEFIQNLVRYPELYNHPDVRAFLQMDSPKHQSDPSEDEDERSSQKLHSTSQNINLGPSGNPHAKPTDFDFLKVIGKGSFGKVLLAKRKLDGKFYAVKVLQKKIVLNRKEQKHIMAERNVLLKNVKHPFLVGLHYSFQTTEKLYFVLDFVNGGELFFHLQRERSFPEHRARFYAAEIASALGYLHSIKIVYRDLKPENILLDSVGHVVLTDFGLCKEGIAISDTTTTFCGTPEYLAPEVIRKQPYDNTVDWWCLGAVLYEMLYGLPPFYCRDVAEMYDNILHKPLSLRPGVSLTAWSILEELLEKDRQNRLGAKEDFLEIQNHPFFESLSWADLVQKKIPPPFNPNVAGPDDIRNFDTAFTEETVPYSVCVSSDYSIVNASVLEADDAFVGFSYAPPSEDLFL
UniProt P15056, sequence (whole entry, looked up): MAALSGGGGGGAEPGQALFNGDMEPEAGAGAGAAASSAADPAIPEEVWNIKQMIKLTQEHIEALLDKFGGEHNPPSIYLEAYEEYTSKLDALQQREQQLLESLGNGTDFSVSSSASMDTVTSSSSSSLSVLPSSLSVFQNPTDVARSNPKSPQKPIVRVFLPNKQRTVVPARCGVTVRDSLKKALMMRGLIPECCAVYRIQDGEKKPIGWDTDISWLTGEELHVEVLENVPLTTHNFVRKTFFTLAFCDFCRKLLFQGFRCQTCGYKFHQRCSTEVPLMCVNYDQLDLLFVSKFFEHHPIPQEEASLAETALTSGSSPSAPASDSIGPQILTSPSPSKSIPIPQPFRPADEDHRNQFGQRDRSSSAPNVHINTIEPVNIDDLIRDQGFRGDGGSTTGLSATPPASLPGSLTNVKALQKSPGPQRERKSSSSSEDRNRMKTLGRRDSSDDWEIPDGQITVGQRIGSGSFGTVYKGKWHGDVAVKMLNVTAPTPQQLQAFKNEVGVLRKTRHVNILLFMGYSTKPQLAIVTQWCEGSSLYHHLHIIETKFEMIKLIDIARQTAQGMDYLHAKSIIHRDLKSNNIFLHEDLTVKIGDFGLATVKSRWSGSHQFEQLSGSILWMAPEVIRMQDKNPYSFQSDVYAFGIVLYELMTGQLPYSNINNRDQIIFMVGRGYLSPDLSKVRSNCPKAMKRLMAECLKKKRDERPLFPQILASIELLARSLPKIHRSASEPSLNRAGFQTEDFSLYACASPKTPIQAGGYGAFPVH
UniProt O75582, sequence (whole entry, looked up): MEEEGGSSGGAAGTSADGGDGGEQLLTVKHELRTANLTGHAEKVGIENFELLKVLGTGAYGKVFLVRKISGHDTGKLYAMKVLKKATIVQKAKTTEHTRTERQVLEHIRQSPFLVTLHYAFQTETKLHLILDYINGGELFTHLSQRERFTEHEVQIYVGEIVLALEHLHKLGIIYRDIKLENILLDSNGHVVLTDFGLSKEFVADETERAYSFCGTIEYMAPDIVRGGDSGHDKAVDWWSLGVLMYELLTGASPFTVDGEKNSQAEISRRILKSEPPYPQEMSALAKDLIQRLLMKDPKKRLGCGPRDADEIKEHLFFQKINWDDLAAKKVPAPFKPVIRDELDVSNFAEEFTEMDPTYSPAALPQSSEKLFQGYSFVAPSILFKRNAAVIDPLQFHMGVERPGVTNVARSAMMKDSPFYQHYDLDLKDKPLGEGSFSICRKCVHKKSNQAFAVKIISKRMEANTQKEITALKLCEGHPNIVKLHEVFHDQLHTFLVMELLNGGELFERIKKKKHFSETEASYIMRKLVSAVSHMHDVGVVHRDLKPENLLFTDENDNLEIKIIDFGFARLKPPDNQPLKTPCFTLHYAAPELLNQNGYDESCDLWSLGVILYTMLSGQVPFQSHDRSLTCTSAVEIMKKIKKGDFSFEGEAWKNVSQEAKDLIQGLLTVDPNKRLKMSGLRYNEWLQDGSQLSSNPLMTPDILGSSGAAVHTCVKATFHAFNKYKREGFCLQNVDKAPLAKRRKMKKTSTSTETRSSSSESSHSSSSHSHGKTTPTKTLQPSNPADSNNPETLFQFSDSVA
UniProt Q92630, sequence (whole entry, looked up): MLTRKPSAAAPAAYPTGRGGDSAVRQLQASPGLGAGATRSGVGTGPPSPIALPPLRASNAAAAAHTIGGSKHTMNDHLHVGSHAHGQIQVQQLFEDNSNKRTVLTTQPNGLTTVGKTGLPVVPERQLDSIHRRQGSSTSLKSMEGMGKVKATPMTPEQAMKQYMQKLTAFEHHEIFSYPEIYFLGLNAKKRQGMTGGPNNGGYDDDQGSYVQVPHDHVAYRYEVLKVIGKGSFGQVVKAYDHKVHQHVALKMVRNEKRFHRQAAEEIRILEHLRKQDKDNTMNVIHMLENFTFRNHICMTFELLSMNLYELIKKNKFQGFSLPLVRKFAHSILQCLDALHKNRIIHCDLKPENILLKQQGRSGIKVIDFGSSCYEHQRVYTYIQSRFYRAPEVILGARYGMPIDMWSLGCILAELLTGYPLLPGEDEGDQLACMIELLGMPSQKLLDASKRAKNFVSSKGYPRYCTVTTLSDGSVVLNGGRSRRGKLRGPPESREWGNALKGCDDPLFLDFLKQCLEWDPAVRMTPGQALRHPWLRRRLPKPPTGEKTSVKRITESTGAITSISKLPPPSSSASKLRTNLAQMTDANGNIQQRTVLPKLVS
UniProt Q99683, sequence (whole entry, looked up): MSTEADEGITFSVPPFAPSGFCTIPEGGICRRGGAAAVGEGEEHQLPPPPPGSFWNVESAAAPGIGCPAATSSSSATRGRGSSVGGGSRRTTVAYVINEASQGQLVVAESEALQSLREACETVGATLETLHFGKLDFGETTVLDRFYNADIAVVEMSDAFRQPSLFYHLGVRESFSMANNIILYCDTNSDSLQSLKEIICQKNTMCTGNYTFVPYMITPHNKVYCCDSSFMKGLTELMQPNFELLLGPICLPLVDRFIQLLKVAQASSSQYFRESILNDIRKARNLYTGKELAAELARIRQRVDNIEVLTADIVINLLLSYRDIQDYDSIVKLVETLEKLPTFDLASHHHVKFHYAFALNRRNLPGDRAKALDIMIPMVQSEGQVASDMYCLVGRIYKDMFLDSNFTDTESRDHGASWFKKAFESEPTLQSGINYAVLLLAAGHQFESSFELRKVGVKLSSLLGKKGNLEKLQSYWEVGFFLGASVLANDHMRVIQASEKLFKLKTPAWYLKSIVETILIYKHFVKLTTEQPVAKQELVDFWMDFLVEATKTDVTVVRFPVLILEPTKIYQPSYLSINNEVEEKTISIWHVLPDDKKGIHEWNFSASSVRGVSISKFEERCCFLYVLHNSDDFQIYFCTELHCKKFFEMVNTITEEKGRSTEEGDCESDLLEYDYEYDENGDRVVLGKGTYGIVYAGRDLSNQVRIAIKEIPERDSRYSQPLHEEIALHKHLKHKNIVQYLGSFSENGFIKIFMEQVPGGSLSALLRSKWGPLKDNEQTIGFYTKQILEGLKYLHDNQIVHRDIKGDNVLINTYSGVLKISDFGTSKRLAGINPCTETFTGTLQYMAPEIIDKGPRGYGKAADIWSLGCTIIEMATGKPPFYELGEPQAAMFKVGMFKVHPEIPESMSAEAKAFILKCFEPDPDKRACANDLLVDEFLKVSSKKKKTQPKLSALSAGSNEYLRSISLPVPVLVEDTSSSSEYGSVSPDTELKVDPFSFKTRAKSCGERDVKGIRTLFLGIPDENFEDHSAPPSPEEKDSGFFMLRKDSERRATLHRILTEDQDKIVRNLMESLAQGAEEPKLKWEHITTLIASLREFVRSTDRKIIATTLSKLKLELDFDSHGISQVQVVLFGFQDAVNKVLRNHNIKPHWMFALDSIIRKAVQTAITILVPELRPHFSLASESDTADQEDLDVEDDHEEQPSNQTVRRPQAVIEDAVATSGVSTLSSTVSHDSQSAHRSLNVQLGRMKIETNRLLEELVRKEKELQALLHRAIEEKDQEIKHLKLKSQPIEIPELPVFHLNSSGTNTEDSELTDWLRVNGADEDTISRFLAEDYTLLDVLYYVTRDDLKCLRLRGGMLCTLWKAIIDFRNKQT
UniProt O94806, sequence (whole entry, looked up): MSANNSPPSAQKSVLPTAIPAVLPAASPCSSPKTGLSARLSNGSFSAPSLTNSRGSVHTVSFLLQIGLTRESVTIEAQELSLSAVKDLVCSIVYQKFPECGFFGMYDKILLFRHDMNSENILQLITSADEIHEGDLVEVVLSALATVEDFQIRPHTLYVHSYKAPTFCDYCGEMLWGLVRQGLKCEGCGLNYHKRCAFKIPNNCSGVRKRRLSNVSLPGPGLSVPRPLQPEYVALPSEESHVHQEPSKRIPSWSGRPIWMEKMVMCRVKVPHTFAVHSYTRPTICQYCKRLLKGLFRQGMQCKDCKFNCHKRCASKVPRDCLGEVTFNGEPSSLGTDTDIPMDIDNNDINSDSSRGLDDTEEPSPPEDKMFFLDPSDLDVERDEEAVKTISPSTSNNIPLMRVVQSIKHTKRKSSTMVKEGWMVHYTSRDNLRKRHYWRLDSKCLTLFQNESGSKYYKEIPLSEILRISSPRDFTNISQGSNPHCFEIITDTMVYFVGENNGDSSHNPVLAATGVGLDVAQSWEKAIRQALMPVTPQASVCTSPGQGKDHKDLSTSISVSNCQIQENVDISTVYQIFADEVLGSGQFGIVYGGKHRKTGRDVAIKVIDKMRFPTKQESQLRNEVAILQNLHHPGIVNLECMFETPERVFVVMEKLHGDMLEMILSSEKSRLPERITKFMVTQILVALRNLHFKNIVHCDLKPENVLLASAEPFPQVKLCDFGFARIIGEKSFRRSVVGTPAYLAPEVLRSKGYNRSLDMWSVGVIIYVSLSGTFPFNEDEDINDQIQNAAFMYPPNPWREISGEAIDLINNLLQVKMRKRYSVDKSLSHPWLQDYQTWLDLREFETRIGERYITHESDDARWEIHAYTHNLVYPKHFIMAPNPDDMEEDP

Study 1
SMILES: CCOCCn1cc(C(=O)Nc2ccc(-n3nc(-c4cccnc4)cc3C(F)(F)F)cn2)ccc1=O
Method: competition with immobilised ligand
Tested at: 1 µM
target | assay | remaining binding [%]
MAPK3 (Homo sapiens, UniProt P27361) | cell-free assay | 100
MAPK6 (Homo sapiens, UniProt Q16659) | cell-free assay | 100
PAK5 (Homo sapiens, UniProt Q9P286) | cell-free assay | 98
GSK3A (Homo sapiens, UniProt P49840) | cell-free assay | 100
MAP3K5 (Homo sapiens, UniProt Q99683) | cell-free assay | 100
DAPK2 (Homo sapiens, UniProt Q9UIK4) | cell-free assay | 93
SRPK3 (Homo sapiens, UniProt Q9UPE1) | cell-free assay | 100
STK17B (Homo sapiens, UniProt O94768) | cell-free assay | 81
Tyrosine-protein kinase ABL1, non-phosphorylated (ABL1, Homo sapiens, UniProt P00519, T315I) | cell-free assay | 96
FLT3 (Homo sapiens, UniProt P36888, N841I) | cell-free assay | 92
LRRK2 (Homo sapiens, UniProt Q5S007, G2019S) | cell-free assay | 100
STK35 (Homo sapiens, UniProt Q8TDR2) | cell-free assay | 94
Ribosomal protein S6 kinase alpha-5, C-terminal kinase domain (RPS6KA5, Homo sapiens, UniProt O75582) | cell-free assay | 63
PRKACA (Homo sapiens, UniProt P17612) | cell-free assay | 92
CDK11B (Homo sapiens, UniProt P21127) | cell-free assay | 100
CSNK2A1 (Homo sapiens, UniProt P68400) | cell-free assay | 70
BRAF (Homo sapiens, UniProt P15056) | cell-free assay | 95
BMPR1A (Homo sapiens, UniProt P36894) | binding | 70
PTK6 (Homo sapiens, UniProt Q13882) | cell-free assay | 100
ANKK1 (Homo sapiens, UniProt Q8NFD2) | cell-free assay | 57
ACVR2B (Homo sapiens, UniProt Q13705) | cell-free assay | 100
Tyrosine-protein kinase JAK1, JH2 (JAK1, Homo sapiens, UniProt P23458) | cell-free assay | 37
MERTK (Homo sapiens, UniProt Q12866) | cell-free assay | 83
CDC42BPA (Homo sapiens, UniProt Q5VT25) | cell-free assay | 100
LIM domain kinase 1 (LIMK1, Homo sapiens, UniProt P53667) | cell-free assay | 84

Study 2
Structure (SMILES): N#Cc1cnc2cnc(NCc3cccnc3)cc2c1Nc1ccc(F)c(Cl)c1
Effect on: enzyme activity
Mode: inhibitor
Tested at: 0.5 µM
Reference: control
target | remaining activity [%]
PRKD3 (Homo sapiens, UniProt O94806) | 90.4
HCK (Homo sapiens, UniProt P08631) | 92.5
RIPK2 (Homo sapiens, UniProt O43353) | 85.3
PLK1 (Homo sapiens, UniProt P53350) | 92.6
TAOK1 (Homo sapiens, UniProt Q7L7X3) | 89.9
NTRK2 (Homo sapiens, UniProt Q16620) | 101
MAP4K5 (Homo sapiens, UniProt Q9Y4K4) | 61.7
SGK3 (Homo sapiens, UniProt Q96BR1) | 91.5
VRK1 (Homo sapiens, UniProt Q99986) | 99.2
ACVR1 (Homo sapiens, UniProt Q04771) | 95.6
RAF1 (Homo sapiens, UniProt P04049) | 90.9
FGFR2 (Homo sapiens, UniProt P21802) | 103
INSRR (Homo sapiens, UniProt P14616) | 97
DYRK2 (Homo sapiens, UniProt Q92630) | 95.5
MAP3K9 (Homo sapiens, UniProt P80192) | 87.5
ULK1 (Homo sapiens, UniProt O75385) | 76.1
PDGFRB (Homo sapiens, UniProt P09619) | 101
PHKG2 (Homo sapiens, UniProt P15735) | 88.3

Study 3
SMILES: CC(C)n1cnc(-c2ccc(F)cc2)c1-c1ncc(C(=O)Nc2ccc(N3CCN(C)CC3)cc2)[nH]1
assay | system | conditions | patients with adverse event
Phase 2a trial, measured: blood creatinine increased | human, idiopathic pulmonary fibrosis | 30 mg once daily, grade 4 | 0%
Phase 2a trial, measured: blood lactate dehydrogenase increased | human, idiopathic pulmonary fibrosis | 30 mg once daily, grade 3 | 0%
Phase 2a trial, measured: hypertriglyceridaemia | human, idiopathic pulmonary fibrosis | 30 mg once daily, grade 2 | 0%
Phase 2a trial, measured: hepatobiliary disorders | human, idiopathic pulmonary fibrosis | 30 mg once daily, grade 5 | 0%
measured: prostatic calcification, maximum grade 2 | idiopathic pulmonary fibrosis patients | oral, 60 mg once daily | 0%
Phase 2a trial, measured: hypoalbuminaemia | human, idiopathic pulmonary fibrosis | 60 mg once daily, grade 5 | 0%
measured: abnormal liver function test, grade 4 | idiopathic pulmonary fibrosis patients | oral, 30 mg once daily | 0%
Phase 2a trial, measured: hypocalcaemia | human, idiopathic pulmonary fibrosis | all compound arms total, grade 4 | 0%
Phase 2a trial, measured: hepatic steatosis | human, idiopathic pulmonary fibrosis | all compound arms total, grade 3 | 0%
Phase 2a trial, measured: blood lactate dehydrogenase increased | human, idiopathic pulmonary fibrosis | 60 mg once daily, grade 3 | 0%
Phase 2a trial, measured: hepatic steatosis | human, idiopathic pulmonary fibrosis | all compound arms total, grade 2 | 0%
Phase 2a trial, measured: hyperuricaemia | human, idiopathic pulmonary fibrosis | all compound arms total, grade 4 | 0%
measured: abnormal liver function test, grade 5 | idiopathic pulmonary fibrosis patients | oral, 30 mg once daily | 0%
measured: periorbital oedema, grade 1 | idiopathic pulmonary fibrosis patients | oral, 30 mg once daily | 0%
Phase 2a trial, measured: blood glucose increased | human, idiopathic pulmonary fibrosis | 60 mg once daily, grade 5 | 0%
Phase 2a trial, measured: blood creatinine increased | human, idiopathic pulmonary fibrosis | 60 mg once daily, grade 4 | 0%
Phase 2a trial, measured: hypertriglyceridaemia | human, idiopathic pulmonary fibrosis | all compound arms total, grade 3 | 0%
Phase 2a trial, measured: hypokalaemia | human, idiopathic pulmonary fibrosis | 60 mg once daily, grade 4 | 0%

Study 4
Host: human
Sample: microsomes or S9
Tested at: 2 µM
Time: 0.5 h
Compound | remaining compound [%]
NC(=O)C1CN(c2cc(=O)n3ccccc3n2)CCN1 (stereo not shown) | 92.5
COc1ccc(OC)c2c1s/c(=N\C(=O)C(C)C)n2C | 0.152
C(=N\n1cnnc1)/c1cn(-c2cccs2)nc1-c1ccccc1 | 40.5
CCS(=O)(=O)N1CC(=O)N(Cc2ccc(OC(C)C)cc2)C(C)(C(=O)NCc2ccccc2)C1 (stereo not shown) | 91.4
CC1(C)CC2(CCCN(CC(O)(c3ccccc3)c3ccccc3)C2)CCO1 (stereo not shown) | 0.00552
Cc1ccc(C(=O)NNc2ccccn2)c(Nc2ccc3cn[nH]c3c2)n1 | 87.8
COc1ccccc1-n1c(=O)n(Cc2cccc(C)c2)c(=O)c2c(C)cc(C)nc21 | 0.98
O=C(c1ccc(Cn2ccn3nc4c(c3c2=O)CCCC4)cc1)N1CCN(c2ncccn2)CC1 | 3.22
CC1CC(C)C(C(=O)NCC(Nc2ccccc2)C(C)C)O1 (stereo not shown) | 1.34
O=C1CC(C(=O)Nc2ccccc2-c2ccccc2)c2ccccc21 (stereo not shown) | 12.1
Cc1noc2c1C(CC(C)C)C1=C(O)CC(C)(C)CC1=N2 (stereo not shown) | 30.1
Cc1nc(C)c(C(=O)N2C3CCC2Cn2c(nnc2-c2ccccc2)C3)s1 (stereo not shown) | > 100
COc1cc(C#N)cc(Br)c1OCCCn1ccnc1 | 77.1
CN(C)C(=O)COCC(=O)Nc1ccc(C#N)cc1 | 86.4
O=C(NCCN1CCCCC1)c1cc2ccc3ccccc3c2o1 | 74.1
Cc1nc2nc(Cl)n(Cc3ccc(-c4cc(CC(C)C)sc4S(=O)(=O)NC(C)(C)C)cc3)c2cc1-c1ccccc1 | 1.63
CC1(C(=O)NC2CCCCCC2)Cn2c(cc3occc32)C(=O)N1Cc1ccco1 (stereo not shown) | 0.0675
CC(C)OCCCNC(=O)c1ccc(C(C)(C)C)cc1 | 23.1
Cc1cccc(NC(=O)c2oc3ccccc3c2NC(=O)c2cc(-c3ccc4c(c3)OCCO4)on2)c1 | 51.8
COc1ccc(Cl)c(OC)c1C1=NOC(C)(C(=O)Nc2ccccn2)C1 (stereo not shown) | 41.3
CC(C)Cn1c(NCCN(C)C)nc2c1c(=O)[nH]c(=O)n2C | > 99

Some of these lines once more (study 1):
target | assay | remaining binding [%]
BMPR1A (Homo sapiens, UniProt P36894) | binding | 70
LIM domain kinase 1 (LIMK1, Homo sapiens, UniProt P53667) | cell-free assay | 84
MAPK3 (Homo sapiens, UniProt P27361) | cell-free assay | 100
STK35 (Homo sapiens, UniProt Q8TDR2) | cell-free assay | 94
ANKK1 (Homo sapiens, UniProt Q8NFD2) | cell-free assay | 57
CDK11B (Homo sapiens, UniProt P21127) | cell-free assay | 100
PAK5 (Homo sapiens, UniProt Q9P286) | cell-free assay | 98
PRKACA (Homo sapiens, UniProt P17612) | cell-free assay | 92
MAP3K5 (Homo sapiens, UniProt Q99683) | cell-free assay | 100
SRPK3 (Homo sapiens, UniProt Q9UPE1) | cell-free assay | 100
LRRK2 (Homo sapiens, UniProt Q5S007, G2019S) | cell-free assay | 100
FLT3 (Homo sapiens, UniProt P36888, N841I) | cell-free assay | 92
CDC42BPA (Homo sapiens, UniProt Q5VT25) | cell-free assay | 100
